Results of several laboratories.
Lines come from different studies, so protocols differ. Several values in a cell are separate wells, animals, samples, runs or records. ± marks the error that the study gave. In brackets after ≈: the same amount, converted by molar mass.

| SMILES | tested on | test | test system | setting | scale | quantity | result |
| --- | --- | --- | --- | --- | --- | --- | --- |
| CCCNCCc1c[nH]c2cccc(O)c12.CCCNCCc1c[nH]c2cccc(O)c12.O=C(O)/C=C/C(=O)O |  |  | C57BL/6J mice | subcutaneous, 30 mg/kg | reference: pre-session baseline | body temperature change | -4.9 ± 0.4 °C |
| Cc1noc2c(NC3CCOCC3)cc(-c3cccc(C(F)(F)F)c3)nc12 | Vero-E6 | CellTiter-Glo ATP |  | concentration not given, 72 h, first round 5-point | reference: DMSO 0%, hyamine -100%, more negative, more toxic | cytotoxicity efficacy | -21.7% |
| CC(C)NCCc1c[nH]c2cccc(O)c12.O=C(O)/C=C/C(=O)O |  |  | C57BL/6J mice | subcutaneous, 0.03 mg/kg | reference: pre-session baseline | body temperature change | 0.1 ± 0.2 °C |
| Fc1cc(-c2cccc3ncc(-c4cnn(C5CCNCC5)c4)nc23)cc(F)c1CN1CCOCC1 | human coronavirus OC43 | virus-induced cell killing | MRC-5 | screen |  | maximum inhibition | 16.5% |
| N=C(N)NCCC[C@@H]1NC(=O)[C@H](CCCCNC(=O)c2ccc(CNC34CNCCNCC(N)(CNCCNC3)CNCCNC4)cc2)NC(=O)[C@@H](Cc2ccc(O)cc2)NC(=O)[C@H](CC(=O)O)NC(=O)CNC1=O [copper-64 labelled] |  | microPET | male athymic nude mouse, PC-3 tumour, muscle | intravenous, 7.4 MBq, 2 h |  | tissue uptake | 0.19 ± 0.03 %ID/g |
| CC[C@H](C)[C@H](NC(=O)[C@H](C)NC(=O)[C@H](CCCCN)NC(=O)[C@H](CC(C)C)NC(=O)[C@H](C)NC(=O)[C@@H](NC(=O)[C@H](Cc1c[nH]cn1)NC(=O)[C@H](CC(C)C)NC(=O)[C@@H](NC(=O)[C@@H](NC(=O)[C@H](CCCCN)NC(=O)[C@H](C)NC(=O)[C@H](C)NC(=O)[C@H](CO)NC(=O)[C@H](CCCCN)NC(=O)[C@H](Cc1ccccc1)NC(=O)[C@@H](NC(=O)[C@H](CCCCN)NC(=O)[C@H](CC(C)C)NC(=O)[C@H](Cc1ccccc1)NC(=O)[C@H](CO)NC(=O)[C@H](CCCCN)NC(=O)[C@H](Cc1c[nH]c2ccccc12)NC(=O)[C@H](CCCCN)NC(C)=O)[C@@H](C)O)[C@@H](C)O)C(C)C)[C@@H](C)O)C(=O)N[C@@H](CO)C(=O)N[C@@H](CO)C(N)=O | Klebsiella pneumoniae |  | ATCC 1706 |  |  | MIC50 | 2 mg/L (≈ 0.682 µM) |
| O=C(Nc1cccnn1)N1CCN([C@@H]2CCOc3cc(C(F)(F)F)ccc32)CC1 | kainate | Cerep BioPrint |  | 20 µM |  | inhibition | 10% |
| Cc1cn([C@H]2O[C@@H](CO[P@@](=O)(N[C@@H](C)C(=O)OC(C)C)Oc3ccccc3)[C@H](O)[C@H]2F)c(=O)[nH]c1=O |  |  | adults with chronic hepatitis B | 25 mg, day 28 | reference: baseline | change in HBsAg | -0.07 log10 IU/mL |
| NC(=O)CN1CC(O)CC1=O (centres unmarked) | Nedd8-cullin1 interaction | neddylation, AlphaScreen |  | 100 µM |  | inhibition | -19% |
| CCCCC1(CCCC)CN(c2ccccc2)c2cc(SC)c(OCC(=O)N[C@@H](C(=O)NCC(=O)O)c3ccccc3)cc2S(=O)(=O)C1 |  | refers to: LDL cholesterol | human, serum | 15 mg once daily, day 7 |  | serum LDL-C | 78.2 mg/dL |
| N[C@@H](C[18F])C(=O)O | MIA PaCa-2 tumour model |  | host not given | 5 min |  | maximum cellular uptake | 1.6 ± 0.2 %ID/100 µg protein |
| CCNCCc1c[nH]c2cccc(O)c12.CCNCCc1c[nH]c2cccc(O)c12.O=C(O)CCC(=O)O |  |  | C57BL/6J mice | subcutaneous, 0.3 mg/kg | reference: pre-session | body temperature change | -0.2 ± 0.2 °C |
| Cc1ccc(-c2cc(C(F)(F)F)nn2-c2ccc(S(N)(=O)=O)cc2)cc1 | human coronavirus OC43 | virus-induced cell killing | MRC-5 | maximum over 10 doses |  | maximum inhibition | 0% |
| CCCCNCCc1c[nH]c2cccc(O)c12.O=C(O)/C=C/C(=O)O |  |  | C57BL/6J mice | subcutaneous, 3 mg/kg | reference: pre-session baseline | body temperature change | -0.2 ± 0.1 °C |
| [N-]=[N+]=CC(=O)OC[C@H](N)C(=O)O | human coronavirus OC43 | virus-induced cell killing | MRC-5 | screen |  | maximum inhibition | 6.21% |
| CC(C)(C)NCCc1c[nH]c2cccc(O)c12.CC(C)(C)NCCc1c[nH]c2cccc(O)c12.O=C(O)/C=C/C(=O)O |  |  | C57BL/6J mice | subcutaneous, 0.03 mg/kg | reference: pre-session baseline | body temperature change | 0 ± 0.1 °C |
| N.N.[Cl][Pt][Cl] | Cal27CisR | flow cytometry sub-G1 |  | 16.5 µM, 24 h |  | apoptotic cells | < 5% |
| COc1c(CCC[P+](c2ccccc2)(c2ccccc2)c2ccccc2)cc2c(c1OC)OCO2.[I-] | NCI/ADR-RES | SRB |  |  |  | Log10LC50 | > -4 log M |
| C=CC(=O)Nc1cccc(Oc2nc(Nc3ccc(N4CCN(C)CC4)cc3OC)ncc2Cl)c1 | human coronavirus OC43 | virus-induced cell killing | MRC-5 | maximum over 10 doses |  | maximum inhibition | 0% |

| SMILES | tested on | test | test system | setting | scale | quantity | result |
| --- | --- | --- | --- | --- | --- | --- | --- |
| C=CCNCCc1c[nH]c2cccc(O)c12.C=CCNCCc1c[nH]c2cccc(O)c12.O=C(O)/C=C/C(=O)O |  |  | C57BL/6J mice | subcutaneous, 1 mg/kg | reference: pre-session baseline | body temperature change | 0.1 ± 0.2 °C |
| COC1=C2C[C@@H](C)C[C@H](OC)[C@H](O)[C@@H](C)/C=C(\C)[C@H](OC(N)=O)[C@@H](OC)/C=C\C=C(/C)C(=O)NC(=CC1=O)C2=O | human coronavirus OC43 | virus-induced cell killing | MRC-5 | screen |  | maximum inhibition | 11.7% |
| CN1CCN(S(=O)(=O)c2cc([N+](=O)[O-])ccc2N(CCOS(C)(=O)=O)CCOS(C)(=O)=O)CC1 |  |  | NSG mice, sample BE PDX | intraperitoneal, 25 mg/kg weekly x3 | reference: vehicle | EFS delay (T-C) | > 359 days |
| CN(C)CCNC(=O)c1ccc2c(c1)C1(CCN(CC3CC3)C1)CN2Cc1ccccc1 (centres unmarked) | Vero-E6 | CellTiter-Glo ATP |  | concentration not given, 72 h, second round 5-point | reference: DMSO 0%, hyamine -100%, more negative, more toxic | cytotoxicity efficacy | 0% |
| C[C@]12CC[C@H]3[C@@H](CC=C4CC(O)CC[C@@]43CO)[C@@H]1CCC2O (some centres unmarked) |  | Sirius Red staining | rat, GAN diet-induced MASH, liver | dose not given | reference: GAN diet plus vehicle | bridging fibrosis | decreased |
| Cc1ccc(S(=O)(=O)/C=C/C#N)cc1 | human coronavirus OC43 | virus-induced cell killing | MRC-5 | screen |  | maximum inhibition | 2.96% |
| Nc1ncnc2c1ncn2[C@@H]1O[C@@H]2COP(=O)(O)O[C@H]3[C@@H](O)[C@H](n4cnc5c(=O)[nH]cnc54)O[C@@H]3COP(=O)(O)O[C@H]2[C@H]1O | HFF-1 | RNA sequencing, refers to: Reactome cytokine signaling |  | upregulated pathways | reference: mock | fold enrichment | 4.98 |
| C[C@H]1O[C@@H](O[C@H]2CC[C@@]3(C)[C@@H](CC[C@]4(C)[C@@H]3C=C[C@]35OC[C@@]6(CCC(C)(C)C[C@H]63)[C@@H](O)C[C@]54C)[C@]2(C)CO)[C@H](O)[C@@H](O[C@@H]2O[C@H](CO)[C@@H](O)[C@H](O)[C@H]2O)[C@H]1O |  |  | mouse, chronic-plus-binge ethanol, AAV8-TBG-Null, liver | dose not given, high dose |  | NAD+/NADH ratio | 3.65 and 4.82 and 2.99 and 3.68 |
| Cc1cc(/C=C/c2ccc3cc(N(C)C)ccc3[n+]2C)c(C)n1-c1ccccc1 | human coronavirus OC43 | virus-induced cell killing | MRC-5 | screen |  | maximum inhibition | 42.5% |
| COc1cc(CCC[P+](c2ccccc2)(c2ccccc2)c2ccccc2)c(OC)c2c1OCO2.[I-] | OVCAR-4 | SRB |  |  |  | LC50 | > -4 log M |
| CS(=O)(=O)Nc1ncn(-c2cc(F)c(COc3ccc(OS(=O)(=O)F)cc3)c(F)c2)n1 | Mycobacterium tuberculosis |  | NIH_G9R, drug-resistant, lineage 2 |  |  | MIC | 0.03 µM |
| C[C@]12CC[C@H]3[C@@H](CCC4=CC(=O)CC[C@@H]43)[C@@H]1CC[C@@H]2OC(=O)CCc1ccccc1 | THP-1 | pyroptotic LDH release |  | 2 µM, 40 min, added: LPS then nigericin |  | inhibition | 7.66% |
| CC[C@H](C)[C@@H]1NC(=O)[C@@H]2CCCN2C(=O)[C@H](CC(C)C)NC(=O)[C@H](CC(C)C)NC(=O)CNC(=O)[C@@H](NC(=O)[C@@H](NC(=O)[C@H](CC(=O)O)NC(=O)CNC(=O)[C@@H](NC(=O)[C@H](C)NC(=O)CNC(=O)[C@H](CCCCN)NC(=O)[C@H](CC(C)C)NC(=O)[C@H](CC(C)C)NC(=O)[C@H](CCCCN)NC(=O)CNC(=O)[C@@H](NC(=O)[C@@H](N)CC(C)C)C(C)C)C(C)C)C(C)C)CSSC[C@@H](C(=O)O)NC1=O |  | RNA-seq, refers to: Csk mRNA | mouse traumatic brain injury, frontal cortex and hippocampus | dose not given | reference: TBI plus compound vs TBI | log2 fold change | -0.666 |
| O=C(O)/C=C/C(=O)O.Oc1cccc2[nH]cc(CCNC3CCCCC3)c12 |  |  | C57BL/6J mice | subcutaneous, 30 mg/kg | reference: pre-session baseline | body temperature change | -2.3 ± 0.7 °C |
| COc1ccc(CCC2CCCC(CCc3ccc(OC)cc3)N2C[C@@H](O)CO)cc1.Cl (stereo in doubt) |  | methamphetamine-evoked dopamine release | rat striatal slices | 10 µM, added: methamphetamine 5 µM |  | time of significant inhibition | 50 to 55 min |
| COc1cc(CCNC(C)c2ccccc2O)c(OC)cc1C#N.Cl (centres unmarked) | 5-HT2A L123V mutant, human | Gq dissociation, BRET |  |  | reference: wild-type 5-HT2A | fold loss in potency | 121 fold |
| CCCCCc1cc(O)c2c(c1)OC(C)(C)[C@@H]1CCC(C)=C[C@@H]21 | human CATSPER2-/- sperm | fluorimetry |  | 10 µM |  | Ca2+ signal | inhibited |
| CC(=O)O[C@]1(C(C)=O)CC[C@H]2[C@@H]3C[C@H](C)C4=CC(=O)CC[C@]4(C)[C@H]3CC[C@@]21C | human coronavirus OC43 | virus-induced cell killing | MRC-5 | screen |  | maximum inhibition | 1.57% |
| O=C(N[C@H](CO)[C@H](O)c1ccc([N+](=O)[O-])cc1)C(Cl)Cl | Salmonella enterica |  |  | 20 h, pH 7 |  | MIC | 2 mg/L |

Some of these lines once more:
| SMILES | tested on | test | test system | setting | scale | quantity | result |
| --- | --- | --- | --- | --- | --- | --- | --- |
| Cc1cn([C@H]2O[C@@H](CO[P@@](=O)(N[C@@H](C)C(=O)OC(C)C)Oc3ccccc3)[C@H](O)[C@H]2F)c(=O)[nH]c1=O |  |  | adults with chronic hepatitis B | 25 mg, day 28 | reference: baseline | change in HBsAg | -0.07 log10 IU/mL |
| NC(=O)CN1CC(O)CC1=O (centres unmarked) | Nedd8-cullin1 interaction | neddylation, AlphaScreen |  | 100 µM |  | inhibition | -19% |
| CCCCC1(CCCC)CN(c2ccccc2)c2cc(SC)c(OCC(=O)N[C@@H](C(=O)NCC(=O)O)c3ccccc3)cc2S(=O)(=O)C1 |  | refers to: LDL cholesterol | human, serum | 15 mg once daily, day 7 |  | serum LDL-C | 78.2 mg/dL |
